Experimental data collected from several papers.
Each line is one published result; not all experiments were run side by side. Values joined by “and” are separate records of one study, mostly repeats; a detail may differ. ± marks the error that the study gave.

`Cc1ccc(N2CC3CC(C2)N3C)cc1C(=O)NC1(c2ccc3c4c(cccc24)C(=O)N3C)CC1` gave an inhibition of 0% (human coronavirus 229E; viral replication; Huh-7; 0.04688 µM).
With `CC(C)(C)C(=O)OCOP(=O)(OCOC(=O)C(C)(C)C)C1CCCN(O)C1=O` (stereo not drawn) the GI50 was 308 nM (RPMI-8226).
With `CC(C)C[C@@H]1NC(=O)[C@@H](Cc2c[nH]c3ccccc23)NC(=O)[C@H](CCCNC(=N)N)NC(=O)[C@@H](CCC(=O)O)NC(=O)[C@H](CCC(N)=O)NC(=O)[C@@H](CCC(=O)O)NC(=O)[C@H](CCCNC(=N)N)NC(=O)[C@@H](Cc2c[nH]c3ccccc23)NC1=O` the cytokine level was 77 ± 21 pg/g tissue (Luminex, measured: TNFa; LDLr-/- mice, Western diet, liver; dose not given, 4 weeks).
For `CC(C)CC(C(=O)N1CC2(CC1C#N)C(=O)Nc1ccccc12)N(C)C(=O)c1cc2c(F)cc(F)c(F)c2[nH]1` (stereo not drawn), the inhibition was 22.6% (Human coronavirus 229E; cytopathic effect; MRC5; 1.53 nM).
For `COc1ccccc1-c1n[nH]c2nc(N[C@H]3CC[C@H](NS(=O)(=O)CC(C)C)CC3)ncc12`, the relative abundance was 1.05 (bead binding, competition bead pull-down, measured: LINJ.19.1560; Leishmania donovani extract; 10 µM; reference: vehicle).
For `Cc1cc(C(=O)Nc2nc3cccc(C)c3n2[C@H]2CCCCN(C(=O)/C=C/CN(C)C)C2)ccn1`, “EC50 fold shift” read 0.73 fold and 0.62 fold (Trypanosoma brucei; cell growth, Alamar Blue; 2T1 overexpressing Tb927.4.5310; reference: parental 2T1).
With `COc1ccccc1-c1n[nH]c2nc(NC3CCN(C(=O)Cc4ccc(F)cc4F)CC3)ncc12` the relative abundance was 0.89 (bead binding, competition bead pull-down, measured: LINJ.25.1790; Leishmania donovani extract; 10 µM; reference: vehicle).
For `O=C1NC2(CC2)COc2ncc(F)cc2[C@H]2COCCN2c2ccn3ncc1c3n2`, the creatinine was 25.2 ± 2.5 µmol/L (Sprague-Dawley rat, male, serum; oral, 5 mg/kg/day, 4 weeks daily, end of recovery period).
With `Cc1cc(Oc2nc(N3CC[C@@H](c4ccncc4)C3)ncc2F)[nH]n1` the normalised growth was 63.4% and 59.2% (Mycobacterium tuberculosis; THP-1, H37Rv non-replicating; 3.001 µM, day 4 plus 1).

Excerpt of the above:
With `CC(C)(C)C(=O)OCOP(=O)(OCOC(=O)C(C)(C)C)C1CCCN(O)C1=O` (stereo not drawn) the GI50 was 308 nM (RPMI-8226).
